Published values from different studies.
Each numbered part is a random draw from the data of one study; scales do not carry over between parts. Substitutions count along the parent as printed.

Block 1
Target: CCNE1, cyclin fold, Cln2 fusion (human)
Technique: yeast growth competition, sequencing
Sample: yeast
Setting: weak parent motif
Relative to: not given
Reading: higher = stronger binding
Quantity: normalised enrichment score
Starting sequence: FZR1 docking peptide (human); QDYERRLLRQIVI
D2A: 0.611
R5K: 0.0501
I11A: 1.55
L7A: 0.724
Q1A: 0.437
V12A: 0.176
L8A: 0.633

Block 2
Target: UBE2E2 UBC core domain (UniProt Q96LR5)
UniProt Q96LR5, sequence (whole entry, looked up): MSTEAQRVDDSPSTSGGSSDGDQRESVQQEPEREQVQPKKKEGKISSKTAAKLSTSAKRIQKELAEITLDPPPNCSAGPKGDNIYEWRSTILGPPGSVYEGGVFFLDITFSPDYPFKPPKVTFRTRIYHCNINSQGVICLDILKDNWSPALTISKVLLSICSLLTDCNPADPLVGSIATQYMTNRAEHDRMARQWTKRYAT
Technique: yeast two-hybrid
Sample: yeast
Setting: mostly zero background
Relative to: not given
Reading: higher = stronger interaction
Quantity: lacZ reporter activity
B1: RNF14 RING domain (UniProt Q9UBS8); chain IKCFNSKLFLCSICFCEKLGSECMYFLECRHVYCKACLKDYFEIQIRDGQVQCLNCPEPKCPSVATPGQVK
B2: NSMCE1 RING domain (UniProt Q8WV22); chain RETYPDAVKICNICHSLLIQGQSCETCGIRMHLPCVAKYFQSNAEPRCPHCNDYWPHEIPKV
B3: RNF4 RING domain (UniProt P78317); chain TGLRPSGTVSCPICMDGYSEIVQNGRLIVSTECGHVFCSQCLRDSLKNANTCPTCRKKINHKRYHP
B4: TRIM15 RING domain (UniProt Q9C019); chain SLKVVHELPACTLCAGPLEDAVTIPCGHTFCRLCLPALSQMGAQSSGKILLCPLCQEEEQAETPMA
B5: PEX2 RING domain (UniProt P28328); chain DNTLATSGKECALCGEWPTMPHTIGCEHIFCYFCAKSSFLFDVYFTCPKCGTEVHSLQPLK
B6: RNF150 RING domain (UniProt Q9ULK6); chain DKETESDFDNCAVCIEGYKPNDVVRILPCRHLFHKSCVDPWLLDHRTCPMCKMNILKALGIP
B7: UBE4A RING domain (UniProt Q14139); chain LQQQEEETYADACDEFLDPIMSTLMCDPVVLPSSRVTVDRSTIARHLLSDQTDPFNRSPLTMDQIRPNTELKEKIQRWLAERKQQKEQLE
B8: TRIM55 RING domain (UniProt Q9BYV6); chain TMDNLEKQLICPICLEMFTKPVVILPCQHNLCRKCASDIFQASNPYLPTRGGTTMASGGRFRCPSCRHEVVLDRHG
B9: TRIM35 RING domain (UniProt Q9UPQ4); chain PSRSFKEELLCAVCYDPFRDAVTLRCGHNFCRGCVSRCWEVQVSPTCPVCKDRASPADLRT
B10: RFPL2 RING domain (UniProt O75678); chain MAALFQEASSCPVCSDYLEKPMSLECGCAVCLKCINSLQKEPHGEDLLCCCSSMVSRKNKIRR
B11: TRIM3 RING domain (UniProt O75382); chain VQPMDKQFLVCSICLDRYQCPKVLPCLHTFCERCLQNYIPAQSLTLSCPVCRQTSILPEQGV
B12: PHF7 RING domain (UniProt Q9BWX1); chain IQHGHVGEESCILCCEDLSQQSVENIQSPCCSQAIYHRKCIQKYAHTSAKHFFKCPQCNNRKEFPQEML
B1 (RNF14 RING domain): 0
B2 (NSMCE1 RING domain): 0
B3 (RNF4 RING domain): 0
B4 (TRIM15 RING domain): 0
KIKDLNEHIVCCLCAGYFVDATTITECLHTFCKSCIVKYLQTSKYCPMCNIKIHETQPLL (PCGF1 RING domain (UniProt Q9BSM1)): 0
B5 (PEX2 RING domain): 0
B6 (RNF150 RING domain): 0
B7 (UBE4A RING domain): 0
B8 (TRIM55 RING domain): 0
B9 (TRIM35 RING domain): 0
FLKKLEQSFMCVCCQELVYQPVTTECFHNVCKDCLQRSFKAQVFSCPACRHDLGQNYIMI (UHRF2 RING domain (UniProt Q96PU4)): 0
B10 (RFPL2 RING domain): 0
B11 (TRIM3 RING domain): 0
B12 (PHF7 RING domain): 0

Block 3
Target: RNA binding protein fox-1 homolog 2, RRM domain, GST-SBP tag (RBFOX2, Homo sapiens, UniProt O43251-10, residues 100-194)
Technique: RNA Bind-n-Seq
Form: RNA
Sample: in vitro
Concentration: 365 nM
Setting: natural RNA segment, single round, ends assumed
Relative to: no-protein control
Reading: higher = stronger binding
Quantity: RBNS enrichment (R)
Constant ends, left off below: GGGAGUUCUACAGUCCGACGAUC … UGGAAUUCUCGGGUGCCAA
Residues (chain): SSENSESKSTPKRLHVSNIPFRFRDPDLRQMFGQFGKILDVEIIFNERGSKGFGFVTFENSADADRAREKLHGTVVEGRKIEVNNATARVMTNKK
GAUGUCUCCUCAAGCCUGUGGGCAGCAUGCCCAGAUUCCCAGACUAAGACACUGUGACAGUUGUCUGUCGGUCCACUGUGUUUAGUUGCAAAGAUUUCACCAUGUGUGUU: 1.9
GAAUAGUUUUUGAAUACACCCACAUUUUGUACGUUUCCAUGUAAGCUGACAUAGUGUUCUGCCAUGUAAUGUUUAUAGCUGCUGAUGUAUGCACAUUUGGGGGUAUAUCU: 0.385
CUUUCUUAAGGGCCAAGAAAGCAACUUGAGCCUUGGGCUAAUCUGGCUGAGUAGUCAGUUAUAAAAGCAUAAUUGCUUUAUAUUUUGGAUCAUUUUUUACUGGGGGCGGA: 0.506
GGAUUACAGGAACCCACCACCACGCCCAGCUAAUUUUUGUAUUUUUAGUAGAUGGGGUUUCAUCAUGUUGGCCAGGCUGGUUUUGAACUCCUGACUUCAAAUGAUCCACC: 0.492
UACUUUAACGUGUAUAGAUAUCUUGUAAACUUGUAUUGUGGAUGUGUAAAUAAUAUGUACUUUGGGUUUUUAACACCGCAUGUAAAGUCAAAAUAAAAUAUCCAAGUCAU: 26.1
UUGCACACCUGACUCUGUCACUCAAGCCUUUCUCCACCAGGCCCCUCAUCUGAAUACCAAGCACAGAAAUGAGUGGUGUGACUAAUUCCUUACCUCUCCCAAGGAGGGUA: 0.292
GGAAGGCAGCCUUUCAGGUAGCAAGAUUAAAUAUUGCUGUUGCCAAAUAGUAUUUGAAAUAAUACCAGAAAACGGGGACCACAGUACUGUUCGAUGUUUUCAAGUGAGAA: 0.323
CGCCCCAACCCCAAUUUCUGGAGCUGCAGCCGUCCCGCGCCCCACCCAAGGUGGGCGCCUUCCCCUCUUGUGCCCAGGGCGGUGGGCGUGGUGUCCACCCGCCCCUCCUG: 0.331
GUUCAAGUAGCAGCUGCUAACCCUUGCACCAGCCCUUGUGGGACUCCCAACACAAGACAAAGCUCAGGAUGCUGGUGAUGCUAGGAAGAUGUCCCUCCCCUCACUGCCCC: 0.272
AGAAAGAGUAGAUGGGCCCAAGCACAGCCUCCUCAUGCGUGAAAUAAUGCCAAAUGCUCUUUAGUAAAAUGCUGAAUUACGGUGUUUUUUUUUUUUUUGCAUCAUUUGUC: 0.597
CUGUCACCCUGAGCACUCUGCGCUGGGGAGGGGUUUAAAUUAUUGACCUUGUACAGUCUGCUUGCUGGCUCUGAAAGCUGGGGUUGGGGGACAGAGUCUCAAGCCCUUAA: 0.488
GACCCUGCGAGGACACGGGCACCCAGCAGCACCUCUCCUCUGUUACCUUCCCCUUGGCGAUCGCUCGGGUUUGUGUUAAGUUAAUCUGUAUGUCCUGUCUGCCAGCGUUC: 1.13

Block 4
Target: Histone acetyltransferase KAT6A, winged helix 1, GST fusion (KAT6A, Homo sapiens, UniProt Q92794, residues 1-85)
Technique: protein binding microarray
Form: double-stranded DNA, one strand shown
Sample: in vitro
Concentration: not given
Setting: 8-mer, flanks averaged, mean of 2 arrays, mostly near background
Relative to: not given
Reading: higher = stronger binding
Quantity: E-score
Construct (chain): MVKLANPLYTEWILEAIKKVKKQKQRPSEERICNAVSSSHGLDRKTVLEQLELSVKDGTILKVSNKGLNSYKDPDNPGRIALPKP
GCCGACTA: 0.125
AAGAGAGA: -0.313
CATGTTAG: -0.121
ATTTCTAA: -0.12
AACATTGT: -0.12
CGTCTCAC: 0.0307
CTGCCGGC: 0.418
ATAACAAG: -0.14
CCGATCCC: 0.19
CACTTCTA: -0.222
ACAGAAAA: -0.0578
TACGACGA: -0.244
ATCACTCG: -0.103
ATTACACC: -0.0591
ACACGATA: -0.123
GCGTAAGA: 0.196
CAGTCCAC: -0.175
TAGCGCTA: 0.252
CTAAGGAC: -0.0205
ATTTCAAA: -0.18
ACGCCTGA: -0.169
CGATGTCA: -0.0156
AGGAAGCC: -0.0188
CGGTTGAG: 0.11
ATCTCATA: -0.232

Block 5
Target: ABI1, truncated, D143A, DHFR fusion (Arabidopsis thaliana)
Technique: DHFR PCA, deep sequencing
Sample: yeast
Setting: methotrexate growth selection, single substitutions
Added: (+)-ABA 2500 µM
Relative to: wild-type fitted maximum
Reading: higher = stronger binding
Quantity: relative binding score
Starting sequence: PYL1, truncated, DHFR fusion (Arabidopsis thaliana); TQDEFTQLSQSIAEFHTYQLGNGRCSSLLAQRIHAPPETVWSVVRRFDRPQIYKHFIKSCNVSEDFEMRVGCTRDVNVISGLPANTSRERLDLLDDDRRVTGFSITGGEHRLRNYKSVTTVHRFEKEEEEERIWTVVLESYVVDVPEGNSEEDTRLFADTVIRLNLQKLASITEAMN; partner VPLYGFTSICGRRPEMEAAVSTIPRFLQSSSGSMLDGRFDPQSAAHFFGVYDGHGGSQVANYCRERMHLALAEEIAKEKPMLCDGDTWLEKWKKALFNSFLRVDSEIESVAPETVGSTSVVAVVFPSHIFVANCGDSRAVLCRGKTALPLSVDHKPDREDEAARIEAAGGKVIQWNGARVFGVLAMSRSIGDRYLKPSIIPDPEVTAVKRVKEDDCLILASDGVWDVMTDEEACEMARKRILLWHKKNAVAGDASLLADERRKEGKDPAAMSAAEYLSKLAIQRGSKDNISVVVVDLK
H16N: 39.6%
P50V: 79.8%
T120G: 69.4%
L20N: 101%
I133A: 103%
N61K: 102%
E152G: 95.1%
T1M: 93.9%
S104M: 83.1%
F56R: 18.3%
T86N: 99.7%
E4R: 93.9%
C60K: 31.5%
L112Y: 71.7%
M176N: 95.7%
S26G: 96.7%

Block 6
Target: Interferon regulatory factor 5, full length, phosphomimetic (IRF5, Homo sapiens, UniProt Q13568-2, residues 1-514, S451D/S453D/S456D/S462D)
Technique: protein-binding microarray
Form: double-stranded DNA, one strand shown
Sample: in vitro
Concentration: 940 nM top
Setting: 60-bp whole probe
Added: salmon DNA 0.4 mg/ml
Relative to: random background probes
Reading: higher = stronger binding
Quantity: fitted relative affinity
Constant ends, left off below: GCCTAGCAC … GTCTTGATTCGCTTGACGCTGCTG
CCACTTTCAGTTCTCCCTTTGTGCTAG: 4.35 z-score
TTAGGTCTACTTCTCCTTTAGTGCTAG: 0.29 z-score
TCAGCTTTCTTTTATGCACTGTGCTAG: 1.01 z-score
AGGGTGTTCTTTTCTGTTGTCGTGCTA: 1.09 z-score
GACGATATCGGGTTTCGTGACGTGCTA: 1.1 z-score
TCATATTAGAGTCTCAAACTGTGCTAG: 0.124 z-score
GACGAACTGGGGATTGGAGACGTGCTA: 0.295 z-score
GAAGATATCGGGTATCGAGACGTGCTA: 0.836 z-score
TTAGGTCTCCTACTGCTTTAGTGCTAG: -0.151 z-score
TCACTCCTCTTTTTTTGACTGTGCTAG: 1.32 z-score
TCATGTTTGGTGTCTTTTACTGTGCTA: 1.22 z-score
GACGGACTGGACCTTCGGGACGTGCTA: -0.678 z-score
GACGGACTGGGTCTCTGGACGTGCTAG: -0.867 z-score
TCAAGTTTTCCTTCATGACTGTGCTAG: 0.92 z-score
GACGGTCTGGGTTTCGGGACGTGCTAG: 3.07 z-score
GACGGTATGGGGTTTCGGGACGTGCTA: 2.15 z-score

A few entries again (block 6):
GACGATATCGGGTTTCGTGACGTGCTA: 1.1 z-score
TCAGCTTTCTTTTATGCACTGTGCTAG: 1.01 z-score
GACGGTATGGGGTTTCGGGACGTGCTA: 2.15 z-score
GAAGATATCGGGTATCGAGACGTGCTA: 0.836 z-score
TTAGGTCTCCTACTGCTTTAGTGCTAG: -0.151 z-score
AGGGTGTTCTTTTCTGTTGTCGTGCTA: 1.09 z-score
GACGGACTGGGTCTCTGGACGTGCTAG: -0.867 z-score
TTAGGTCTACTTCTCCTTTAGTGCTAG: 0.29 z-score
TCATATTAGAGTCTCAAACTGTGCTAG: 0.124 z-score
GACGGACTGGACCTTCGGGACGTGCTA: -0.678 z-score
CCACTTTCAGTTCTCCCTTTGTGCTAG: 4.35 z-score
TCACTCCTCTTTTTTTGACTGTGCTAG: 1.32 z-score
